Measurements from different studies.
A part holds a random share of what one study measured.

Study 1 — technique: protein binding microarray; molecule type: double-stranded DNA, one strand shown; sample: in vitro; concentration: not given; relative to: not given; direction: higher = stronger binding
Target: Histone acetyltransferase KAT6A, winged helix 1, GST fusion (KAT6A, Homo sapiens, UniProt Q92794, residues 1-85)
Notes: 8-mer, flanks averaged, mean of 2 arrays, mostly near background
Target sequence (chain): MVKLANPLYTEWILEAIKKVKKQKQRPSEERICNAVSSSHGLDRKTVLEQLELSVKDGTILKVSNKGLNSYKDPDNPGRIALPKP
Strand | E-score
CCGGCAGG | 0.168
AGGCACCC | -0.0501
GAGATAAC | -0.109
ATAGCATC | -0.0839
CTAATGTA | -0.0423
AGCCAAAC | 0.026
ATCTTCAA | -0.165
TAAATTAA | -0.138
CTACGATA | -0.118
GGAACGAC | -0.0598
GATTTACC | -0.0359
ATCTACGA | -0.221
GTGACTCA | 0.00941
CTAAGAGC | -0.0018
AGATCCGG | -0.0189
AGTCTTCG | -0.184
GTGCGGCA | 0.272
ATCTGGAA | -0.16
TATTATGA | 0.0207
GCACTATA | 0.0721
GGTTTTGA | -0.0113
AACAAGTC | -0.187
CAACAGGG | -0.288
ACGATAGG | -0.0935
ATTGAAAC | -0.185

Study 2 — technique: protein-binding microarray; molecule type: double-stranded DNA, one strand shown; sample: in vitro; concentration: 2540 nM top; notes: 60-bp whole probe; with: salmon DNA 0.4 mg/ml; relative to: random background probes; direction: higher = stronger binding; constant ends, left off below: GCCTAGCAC … GTCTTGATTCGCTTGACGCTGCTG
Target: Interferon regulatory factor 3, full length, phosphomimetic (IRF3, Homo sapiens, UniProt Q14653, residues 1-427, S386D/S396D/S398D/S402D/T404D/S405D)
Chain of UniProt Q14653 (whole entry, unmodified, looked up): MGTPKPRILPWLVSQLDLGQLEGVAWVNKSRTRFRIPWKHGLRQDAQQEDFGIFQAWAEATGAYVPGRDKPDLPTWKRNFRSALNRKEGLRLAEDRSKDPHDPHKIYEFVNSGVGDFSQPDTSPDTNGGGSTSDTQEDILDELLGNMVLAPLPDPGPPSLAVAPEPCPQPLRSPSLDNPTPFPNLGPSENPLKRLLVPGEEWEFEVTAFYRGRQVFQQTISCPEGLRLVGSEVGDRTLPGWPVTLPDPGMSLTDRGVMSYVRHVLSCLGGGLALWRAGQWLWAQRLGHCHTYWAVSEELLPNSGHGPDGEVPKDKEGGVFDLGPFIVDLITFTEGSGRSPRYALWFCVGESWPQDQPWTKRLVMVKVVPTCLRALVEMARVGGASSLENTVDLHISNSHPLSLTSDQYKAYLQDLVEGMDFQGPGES
Strand | fitted relative affinity [z-score]
TTAAATTTCAGTTCCGATTAGTGCTAG | 3.85
TTAGAACTGGGGTATCGATTAGTGCTA | -0.347
TTAGATTTCAGTTCCGATAAGTGCTAG | 3.66
TACGAACTGGGGTTTCGAGACGTGCTA | 0.389
GACGAACCGAGTATCGAGACGTGCTAG | 0.206
TTAGATCCCAGTATCGATTAGTGCTAG | 1.32
GACGATCTCAGACTAGAGACGTGCTAG | 0.375
TTAGGATTGCTACTGCTTTAGTGCTAG | -0.295
TTAGATATAAGTTTCGATTAGTGCTAG | 3.08
TTAGGTATCGGTGTCGGTTAGTGCTAG | 2.91
TTAGATCTCAGTTTCGATGAGTGCTAG | 2.37
AGAGCTATCACTATTCTAGGGTGCTAG | 0.535
TTGGGTCTCGGTATCGGTTAGTGCTAG | 1.9
TCAGGTATCGGTTTCGGTTAGTGCTAG | 8.57
TGCTTCCTCTTTTTTGTTCCGTGCTAG | 1.15
GACGATTTCGGGACTGAAGACGTGCTA | 1.94
GACGGTTTCGGTTTGGGGACGTGCTAG | 8.69
GACGGTATAGGGACTGGGGACGTGCTA | -0.621
TGTACTCTCTCCATGTGTTTGTGCTAG | 0.311

Study 3 — technique: protein-binding microarray; molecule type: double-stranded DNA, one strand shown; sample: in vitro; concentration: not given; direction: higher = stronger binding
Target: Protein max, full length (MAX, Homo sapiens, UniProt P61244-2, residues 1-151)
Notes: k-mer, scored over probes, only values ≥0.25
Strand | E-score
AGGCACAT | 0.396
CCACACCC | 0.292
CCATGCAG | 0.359
CATGACTA | 0.289
ACGCTACG | 0.307
CTGACACA | 0.272
CACCATGA | 0.266
GTGTGCGA | 0.284
ACGCGAGA | 0.299
CCCCTCCA | 0.307
CATGGGAA | 0.257
ATCATGCC | 0.307
ACGCACAT | 0.392
CGTGTAAA | 0.366
CAATGTGA | 0.354
AGACACGA | 0.351
AGCATGCA | 0.42
ACGTGGGA | 0.438
ACATGGCT | 0.315
CGTGGAGC | 0.386

Study 4 — technique: RNA Bind-n-Seq; molecule type: RNA; sample: in vitro; concentration: 365 nM; relative to: no-protein control; direction: higher = stronger binding
Target: RNA binding protein fox-1 homolog 2, RRM domain, GST-SBP tag (RBFOX2, Homo sapiens, UniProt O43251-10, residues 100-194)
Notes: natural RNA segment, single round, ends assumed
Construct (chain): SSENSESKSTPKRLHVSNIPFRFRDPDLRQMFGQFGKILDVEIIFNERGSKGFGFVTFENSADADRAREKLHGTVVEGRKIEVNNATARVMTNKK
Strand | RBNS enrichment (R)
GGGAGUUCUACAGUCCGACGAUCGGCAUUCCCUCUAGAUUCAGGUUUGGGCAGGGGUCCUAUAGUCCCUGCCAUGGGGCUGCUUCCCUGUCCCUUCCCUCCCCUUUGCUGGCCUACUCUGGCAUAAUUCAAGUUGGAAUUCUCGGGUGCCAA | 0.314
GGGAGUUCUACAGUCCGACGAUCUUAACACUAAAAACGGAUCAAAGCUCCCACGCCAGUCCACUAGGGCCCCAGUAGUUGACAGCCUUGCUCCUCUCCCAAGUUCUCCUUCAGAACCUAGUUGCUUUUAUUCUUGGAAUUCUCGGGUGCCAA | 0.936
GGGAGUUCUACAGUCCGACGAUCGCAGGCACCUCCCAAAUAUCUUGAGGACACUGGCAGCCUUAUGGUGACUAAAUCCACACUUUCUUUAAAGAGAUGCAGAUGAAUUACUUUUCUGUUAAUAUAUAGAAAAAUGGAAUUCUCGGGUGCCAA | 0.485
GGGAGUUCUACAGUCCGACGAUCCUAGUUUCUUAAGCAGACCAAGUGAAUGGCUUACAGUCUGAAACAAAUAAAAGCCUUUGUAAAAGUCUGCGGUCUGCCGUCUGGUAAGCCAUCACUGCCGCCAGGAAGAGUGGAAUUCUCGGGUGCCAA | 0.372
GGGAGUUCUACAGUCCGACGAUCUCCCUCAGGCUGGAGCUUAGCUCAGUGCAGCCUCCAACUCCUGGGCUCAAGCAAUCCUCCCACUUUAGCCUCCUGAGUAGCUGGGACUACAGGCGUGUGCCAGCGCGCCUUGGAAUUCUCGGGUGCCAA | 0.363
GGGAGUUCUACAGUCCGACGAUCCCUGCUGCAGUCUCUUGGGUCUCACACGCACUGCAAAUGCUAAGCGAUGGCCAGCUGUCUCCCUCCGUGGCAUCUGCUAUUCAAAGAAGAUGGAGUGAGAGGGGCGCCAGUGGAAUUCUCGGGUGCCAA | 0.275
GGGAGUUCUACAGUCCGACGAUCGGCUGGCACCAGGGGAGUGAAACUGGCUGAUGACCAGCUGAGCCACUUUGUGCCAACAGAGGAUGGACGACACCUUUCCCUGUACCCACUGCAGAGGAAGAACCCUGGGCUGGAAUUCUCGGGUGCCAA | 0.261
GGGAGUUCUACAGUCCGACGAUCCCCCUUCCUGACAACUUGAGCCAGUAAGCCAUGCAGGGUGUGGUGCCUCCUAGAGAAAACACUGCCUGGACUGUUCUGUGCAUCCCUCCAAACAGCAUCAUCCAAAUCCAUGGAAUUCUCGGGUGCCAA | 1.21

Excerpt of the above (study 3):
Strand | E-score
AGGCACAT | 0.396
ACGCTACG | 0.307
ACATGGCT | 0.315
CATGACTA | 0.289
ACGCACAT | 0.392
CCACACCC | 0.292
CATGGGAA | 0.257
GTGTGCGA | 0.284
CCCCTCCA | 0.307
